Results pooled from the literature.
Compare with care: the assays were run in different laboratories.

The Tmax of `COc1ccc(CCN2CCC(Nc3nc4ccccc4n3Cc3ccc(F)cc3)CC2)cc1` is reported as 0.467 h (C2 mouse male, whole blood; intravenous, 8 mg/kg).
`COc1cccc2c1C(=O)c1c(O)c3c(c(O)c1C2=O)C[C@@](O)(C(=O)CO)C[C@@H]3O[C@H]1C[C@H](N)[C@H](O)[C@H](C)O1` has a Tmax of 0.0833 h (mouse, E0771 tumour-bearing, liver; intravenous, 92 µmol/kg).
`Cc1c2oc3c(C)ccc(C(=O)N[C@@H]4C(=O)N[C@H](C(C)C)C(=O)N5CCC[C@H]5C(=O)N(C)CC(=O)N(C)[C@@H](C(C)C)C(=O)O[C@@H]4C)c3nc-2c(C(=O)N[C@@H]2C(=O)N[C@H](C(C)C)C(=O)N3CCC[C@H]3C(=O)N(C)CC(=O)N(C)[C@@H](C(C)C)C(=O)O[C@@H]2C)c(N)c1=O` has a Tmax of 0.5 h (mouse, Abcc2−/− knockout, FVB background, brain; intravenous, 0.5 mg/kg).
`Cc1ccc(Nc2nccc(N(C)c3ccc4c(C)n(C)nc4c3)n2)cc1S(N)(=O)=O` gave a Tmax of 2 h (mouse non-tumour-bearing, plasma; oral, 150 mg/kg single, alone or with topotecan).
`CCOc1ccc(NC(=S)N(CCO)Cc2cc3cc(C)cc(C)c3[nH]c2=O)cc1` gave a Tmax of 4 h (C57BL/6J mouse, plasma; oral, 3 mg/kg, together with: ABT 50 mg/kg oral pretreatment 2 h before).
`Cc1cc(-c2cc(OC(=O)c3ccccc3)ccc2Cl)cc2nnc(Nc3ccc(OCCN4CCCC4)cc3)nc12` has a Tmax of 1 h (C57BL/6 mouse, retina; topical, 1%).
With `C#Cc1cccc(Nc2ncnc3cc(OCCOC)c(OCCOC)cc23)c1` the Tmax was 3 h (NOD/SCID mouse, male, whole blood or plasma; oral, 12.5 mg/kg every 12 h, day 1).
For `CC(C)NC(=O)COc1cccc(-c2nc(Nc3ccc4[nH]ncc4c3)c3ccccc3n2)c1`, the Tmax was 2 h (male C57BL/6 mouse, brain; oral, 100 mg/kg, one-compartment model).

Excerpt of the above:
With `C#Cc1cccc(Nc2ncnc3cc(OCCOC)c(OCCOC)cc23)c1` the Tmax was 3 h (NOD/SCID mouse, male, whole blood or plasma; oral, 12.5 mg/kg every 12 h, day 1).
